Measurements of several laboratories.
A part holds a random share of what one study measured. Changes are numbered by the printed parent chain.

Set 1 — method: universal PBM; form: double-stranded DNA, one strand shown; sample: in vitro; tested at: not given; direction: higher = stronger binding
Target: Sal-like protein 4, full length isoform B (SALL4, Homo sapiens, UniProt Q9UJQ4-2, residues 1-616)
Setting: 8-mer, flanks averaged, mean of replicates
Target sequence (chain): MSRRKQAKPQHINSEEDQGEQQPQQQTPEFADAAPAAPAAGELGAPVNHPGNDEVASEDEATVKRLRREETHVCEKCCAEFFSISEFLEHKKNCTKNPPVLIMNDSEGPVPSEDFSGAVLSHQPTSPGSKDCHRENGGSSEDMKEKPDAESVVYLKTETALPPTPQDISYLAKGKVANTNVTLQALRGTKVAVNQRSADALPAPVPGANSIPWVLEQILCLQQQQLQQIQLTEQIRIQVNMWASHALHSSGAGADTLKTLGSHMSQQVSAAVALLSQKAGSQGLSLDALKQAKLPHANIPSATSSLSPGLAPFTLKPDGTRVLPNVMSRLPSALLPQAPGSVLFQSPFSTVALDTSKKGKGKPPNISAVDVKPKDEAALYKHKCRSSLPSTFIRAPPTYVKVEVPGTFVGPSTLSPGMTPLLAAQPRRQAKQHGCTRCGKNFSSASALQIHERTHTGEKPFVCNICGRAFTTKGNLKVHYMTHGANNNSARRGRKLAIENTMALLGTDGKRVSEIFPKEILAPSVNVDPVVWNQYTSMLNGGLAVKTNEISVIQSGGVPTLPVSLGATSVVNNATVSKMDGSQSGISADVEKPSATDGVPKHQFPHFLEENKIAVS
Strand | E-score
CAAGGTTC | -0.0731
ATCTGAGG | -0.0345
ATGTCATA | 0.345
CCTCCAAG | -0.138
AAAATTTA | 0.351
ATCCCCTA | 0.12
GGAGGAGA | -0.141
AAAGGCCC | -0.168
CCAGTCCA | -0.36
ACTATGGC | 0.018
GCCTATAC | 0.041
CACCCCAA | -0.0631
CTCCCGCA | -0.193
CCGCAACA | 0.00269
TTGCTAAA | 0.111
ACGTGAGA | 0.0936
GTCTACAC | -0.105
TCAATTCA | 0.21
CTTTTCCA | 0.0712
CGGGCTGA | -0.348
CAAATAGC | 0.184
ATCTCGCG | -0.00133
AATTGGCA | 0.146
CCCCTACA | -0.0314
AGCACATC | -0.0181

Set 2 — target: FOS, bZIP domain (human); method: DHFR protein complementation; sample: yeast; baseline: wild-type JUN-FOS pair; direction: higher = stronger binding
Setting: single substitutions, most at no-binding floor
Parent: JUN, bZIP domain (human); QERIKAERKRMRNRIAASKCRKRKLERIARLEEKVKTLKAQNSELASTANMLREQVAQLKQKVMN; partner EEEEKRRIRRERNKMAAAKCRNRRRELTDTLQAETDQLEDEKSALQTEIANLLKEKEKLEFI
Variant | binding fitness
K36F | -0.264 natural log
T48P | -1.22 natural log
V35S | -0.467 natural log
S43E | 0.0737 natural log
L45P | -1.32 natural log
V56D | -1.47 natural log
E54H | -0.146 natural log
K39F | -1.27 natural log
T48S | -0.328 natural log
T37P | -1.14 natural log
A46N | -0.102 natural log
R53H | -0.644 natural log
A46E | 0.000725 natural log
A29W | -0.268 natural log
E44H | -0.186 natural log
M51C | -0.121 natural log
V35I | 0.139 natural log

Set 3 — method: RNA Bind-n-Seq; form: RNA; sample: in vitro; tested at: not given; baseline: input RNA pool; direction: higher = stronger binding
Target: RING finger protein unkempt homolog, zinc fingers 1-6, GST-SBP tag (UNK, Homo sapiens, UniProt Q9C0B0, residues 30-357)
UniProt Q9C0B0, sequence (30-357, looked up): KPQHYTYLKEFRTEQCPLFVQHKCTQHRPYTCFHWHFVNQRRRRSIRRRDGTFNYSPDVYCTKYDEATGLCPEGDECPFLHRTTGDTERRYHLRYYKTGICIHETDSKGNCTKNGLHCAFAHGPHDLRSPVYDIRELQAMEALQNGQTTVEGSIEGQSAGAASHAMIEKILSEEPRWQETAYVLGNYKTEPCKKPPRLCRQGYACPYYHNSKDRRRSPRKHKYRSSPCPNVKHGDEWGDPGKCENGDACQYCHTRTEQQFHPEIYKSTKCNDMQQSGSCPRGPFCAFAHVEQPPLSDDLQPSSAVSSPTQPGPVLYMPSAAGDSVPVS
Setting: RNA with constant flanks, human and mouse sites, ends assumed
Strand | bound/input enrichment [ratio]
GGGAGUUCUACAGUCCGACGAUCGGACAUUCUUGAGGUUUAACCUUGAUCCCUUGUGCUUCGGGCCCCAGCCUGUUGCUUGUGUUAGCAGAGGUUUGGUCAGCUCUGUGCCACUGCUCCAGAGAAGUACUACUCACUGGCCUGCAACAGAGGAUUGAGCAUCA | 0.119
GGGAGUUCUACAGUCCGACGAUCUAUAGCAAGAUUGUUUGCAUACUUUUGUAAUGAAGGGGAGUGUCCAGUGGAAGGAUUUUUAAAAUUAUCUUAUGGAUAGCUCAAGUCUCUGCCAUUUGUAAUUUUUGGCUCUAAGCUCCGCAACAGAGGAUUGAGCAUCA | 0.612
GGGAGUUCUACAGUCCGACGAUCAUUACUGUCUUGCUGAUCUUGCAUCUUUAAUGGAUAAAACAUUUGAGAGAAAGUUGCCUGUUAGUUCUUUAACAAUAUCACGGCUUAUAGACAACAUUUCCUCUCGGGAAGAGAUAGAUCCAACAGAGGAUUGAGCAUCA | 0.488
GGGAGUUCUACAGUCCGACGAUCUUAUAUCGUAUGUAUCAGUAGUUACAUUUAUUAUUAAGUGCUGUCCUGAUACAGAGAUGAAAAAGUAGAACCUGGUGUGAUGGCACACACUUUGAUCCUAGCACUCUGGAGGAAGGGGCACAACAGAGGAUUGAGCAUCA | 1.04
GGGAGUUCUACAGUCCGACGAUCCGAAAUUGGGAUGACAUGAAACACCUGUGGGACUACACAUUUGGACCAGAGAAACUUAAUAUAGAUACCAGAAAUUGUAAAAUCUUACUCACAGAACCUCCUAUGAACCCAACCAAAAACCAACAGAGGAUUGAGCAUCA | 0.559
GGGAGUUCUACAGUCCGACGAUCUACUCAACUUUCUUGCCACAUUUUGAAUUCCAAGACAUUAUUCCUCCAGAUGACUUCCUAACGAGUGAUGAAGAGCAAGAUUUGGUUUUAUUUGGAACUAUGAGAGGACAAGUUGUUGGACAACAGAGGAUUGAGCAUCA | 0.174
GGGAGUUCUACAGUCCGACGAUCGCUAUAUUGACACUUGUAUGGUCAUCUUUGCCCCUCGUUACCUAUUAGAUAAUAAAUCAUCUCACAAGCUUGCAUUUGCACAAAGGGAAUUUGCUCGGGGACAGGGAACAGCCAAUCCCACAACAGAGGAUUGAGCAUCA | 1.11

Set 4 — target: CEP164, C-terminal peptide (human); method: DHFR complementation, deep sequencing; sample: yeast; baseline: wild type; direction: higher = weaker binding
Setting: single substitutions, model-inferred values
Parent: PDZK1, PDZ domain 2 (human); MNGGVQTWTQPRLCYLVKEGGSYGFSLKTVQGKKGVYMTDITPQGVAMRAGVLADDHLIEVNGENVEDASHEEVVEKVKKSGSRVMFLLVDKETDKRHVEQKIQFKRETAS; partner HNRVKVYRF
Variant | binding free energy change [kcal/mol]
V46W | 0.988
F105P | -0.135
G32R | 0.553
L16G | 1.46
T109H | -0.154
V90A | -0.233
G63Y | 0.0353
D40S | 0.711
K18S | 0.244
H57I | -0.637
Y15L | 0.0892

Set 5 — target: CCNB2, cyclin fold, Cln2 fusion (human); method: yeast growth competition, sequencing; sample: yeast; setting: weak parent motif; baseline: not given; direction: higher = stronger binding
Parent: RBL1 docking peptide (human); GSAKRRLFGEDPP
Variant | normalised enrichment score
GSAKRRLFGEDNP [P12N] | 0.413
GSAKRELFGEDPP [R6E] | -0.0863
GSAKRRLFGEDPF [P13F] | 0.089
GEAKRRLFGEDPP [S2E] | -0.275
GSADRRLFGEDPP [K4D] | -0.683
GSAKRRLFGEYPP [D11Y] | 0.81
GSAKRRLFGEDPC [P13C] | 0.0116
GSAKRRHFGEDPP [L7H] | -0.181
ASAKRRLFGEDPP [G1A] | 0.289
GSAKRRLFREDPP [G9R] | 0.195
GSMKRRLFGEDPP [A3M] | -0.136
GSAKRRLFGRDPP [E10R] | 0.694
GSAKRRLFGEDHP [P12H] | 0.296
GSAKFRLFGEDPP [R5F] | -0.402
GHAKRRLFGEDPP [S2H] | 0.267
GSAKRVLFGEDPP [R6V] | -0.0554

Set 6 — method: DNA-protein interaction ELISA; form: double-stranded DNA, one strand shown; sample: in vitro, bacterial lysate; tested at: not given; setting: whole dsDNA probe, crude lysate protein; baseline: highest signal in screen; direction: higher = stronger binding
Target: Probable WRKY transcription factor 11, DNA-binding domain (WRKY11, Arabidopsis thaliana, UniProt Q9SV15, residues 228-325)
Target sequence (chain): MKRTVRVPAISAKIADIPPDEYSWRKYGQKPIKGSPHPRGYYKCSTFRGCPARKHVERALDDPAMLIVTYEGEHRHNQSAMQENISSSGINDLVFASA
Strand | relative absorbance
AAAAAATAGTGTGATTGGTATCCAGTAAAA | 17.6 % of maximum
AAAAAAATTGTATCATACTTCAGTTGAAAA | 16.1 % of maximum
AAAAAACATTCCTAGTTCATGTTACTAAAA | 16.4 % of maximum
AAAAAAGGCTGTGGCCAATGTTCGTAAAAA | 14.7 % of maximum
AAAAAAACACCTGTATAGCATGGACGAAAA | 19.6 % of maximum
AAAAAACCCGCCGTCGTGATTATCACAAAA | 19.6 % of maximum
AAAAAAAGTTGTACTTATTATACTTTAAAA | 13 % of maximum
AAAAAACGTGCGCGTGCATGTCATCGAAAA | 17.3 % of maximum
AAAAAATCTTACCCCTCCGCTTCTATAAAA | 15.6 % of maximum
AAAAAATCCGTTCCCATTTGTCCGTCAAAA | 15 % of maximum
AAAAAATGGCTCGGGTTCCAAGGTTGAAAA | 16.7 % of maximum
AAAAAAACGATACGGTATCTAGAAAA | 14.1 % of maximum
AAAAAATTACGTTTGTATTTGTAAAA | 14.7 % of maximum
AAAAAAATCTCACTCCTGGTCCCCATAAAA | 14.1 % of maximum
AAAAAATGTCGGCTGTTAGGATATCGAAAA | 17 % of maximum
AAAAAACCCGTTCTACCTTATTCCTGAAAA | 13 % of maximum
AAAAAATTGTGCCTCTGCCCTCGCCTAAAA | 15.3 % of maximum

Set 7 — method: DHFR PCA, deep sequencing; sample: yeast; added: (+)-ABA 710 µM; baseline: wild-type fitted maximum; direction: higher = stronger binding
Target: ABI1, truncated, D143A, DHFR fusion (Arabidopsis thaliana)
Setting: methotrexate growth selection, single substitutions
Parent: PYL1, truncated, DHFR fusion (Arabidopsis thaliana); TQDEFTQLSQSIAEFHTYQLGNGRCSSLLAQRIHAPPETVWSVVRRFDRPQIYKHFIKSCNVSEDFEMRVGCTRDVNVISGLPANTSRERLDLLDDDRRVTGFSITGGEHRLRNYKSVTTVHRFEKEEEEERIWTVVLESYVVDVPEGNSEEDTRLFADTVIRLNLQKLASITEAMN
Variant | relative binding score [%]
V143S | 82.1
T160M | 102
I133C | 111
E38L | 78
I12S | 72.3
Q51W | 105
G81M | 50.3
R99A | 97.9
L156Y | 92.6
Y18R | 94.6
A13K | 90.1

Repeated from above (set 3):
Strand | bound/input enrichment [ratio]
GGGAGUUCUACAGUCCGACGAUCUAUAGCAAGAUUGUUUGCAUACUUUUGUAAUGAAGGGGAGUGUCCAGUGGAAGGAUUUUUAAAAUUAUCUUAUGGAUAGCUCAAGUCUCUGCCAUUUGUAAUUUUUGGCUCUAAGCUCCGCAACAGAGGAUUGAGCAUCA | 0.612
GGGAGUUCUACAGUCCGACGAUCAUUACUGUCUUGCUGAUCUUGCAUCUUUAAUGGAUAAAACAUUUGAGAGAAAGUUGCCUGUUAGUUCUUUAACAAUAUCACGGCUUAUAGACAACAUUUCCUCUCGGGAAGAGAUAGAUCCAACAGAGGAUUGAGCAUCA | 0.488
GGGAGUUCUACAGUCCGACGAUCUUAUAUCGUAUGUAUCAGUAGUUACAUUUAUUAUUAAGUGCUGUCCUGAUACAGAGAUGAAAAAGUAGAACCUGGUGUGAUGGCACACACUUUGAUCCUAGCACUCUGGAGGAAGGGGCACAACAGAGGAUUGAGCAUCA | 1.04
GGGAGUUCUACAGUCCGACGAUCCGAAAUUGGGAUGACAUGAAACACCUGUGGGACUACACAUUUGGACCAGAGAAACUUAAUAUAGAUACCAGAAAUUGUAAAAUCUUACUCACAGAACCUCCUAUGAACCCAACCAAAAACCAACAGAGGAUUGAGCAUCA | 0.559
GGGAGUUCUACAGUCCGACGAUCUACUCAACUUUCUUGCCACAUUUUGAAUUCCAAGACAUUAUUCCUCCAGAUGACUUCCUAACGAGUGAUGAAGAGCAAGAUUUGGUUUUAUUUGGAACUAUGAGAGGACAAGUUGUUGGACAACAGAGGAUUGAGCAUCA | 0.174
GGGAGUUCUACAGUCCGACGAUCGCUAUAUUGACACUUGUAUGGUCAUCUUUGCCCCUCGUUACCUAUUAGAUAAUAAAUCAUCUCACAAGCUUGCAUUUGCACAAAGGGAAUUUGCUCGGGGACAGGGAACAGCCAAUCCCACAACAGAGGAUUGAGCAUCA | 1.11
